Published values collected from several papers.
Every numbered part comes from another study and shows a few of its results, in no order. “And” joins repeats or separate records; there may be more than shown.

Block 1 — observed: ligand displacement; tested at: 10 µM
Target: Muscarinic acetylcholine receptor M4 (CHRM4, Homo sapiens, UniProt P08173)
Chain of UniProt P08173 (whole entry, looked up): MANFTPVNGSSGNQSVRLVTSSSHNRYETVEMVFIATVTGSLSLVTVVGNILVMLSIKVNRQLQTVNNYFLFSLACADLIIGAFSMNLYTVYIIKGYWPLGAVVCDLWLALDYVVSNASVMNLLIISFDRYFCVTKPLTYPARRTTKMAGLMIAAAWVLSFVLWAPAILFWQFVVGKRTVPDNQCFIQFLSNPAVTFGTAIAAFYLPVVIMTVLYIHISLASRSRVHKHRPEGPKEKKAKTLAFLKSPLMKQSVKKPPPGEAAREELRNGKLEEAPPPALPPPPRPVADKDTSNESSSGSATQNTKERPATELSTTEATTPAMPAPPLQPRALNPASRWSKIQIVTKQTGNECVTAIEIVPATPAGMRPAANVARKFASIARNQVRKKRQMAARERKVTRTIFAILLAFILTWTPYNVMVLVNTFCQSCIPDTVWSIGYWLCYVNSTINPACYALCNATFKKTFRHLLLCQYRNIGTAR
Structure (SMILES) | inhibition
O=c1nc(-c2ccccn2)sc2ccccc12 | -12%
O=C(NCCCC1CCCCC1)c1ccc(CNC(=O)c2cnn(-c3ccccc3)c2C(F)(F)F)cc1 | 20.1%
COc1cc(-c2cn(C3CCc4c(F)cccc4N(CC(F)(F)F)C3=O)nn2)ccc1-n1cnc(C)c1 (stereo not shown) | 26.2%
Cc1ccc(-c2cnc([C@@]3(O)CC[C@H](C(=O)O)C(C)(C)C3)s2)cc1Nc1cccc(C(F)(F)F)n1 | 20%
CN1CCN(c2cnc3c(C4CCN(C(=O)c5ccc(OC(F)(F)F)cc5N)CC4)ncnc3c2)CC1 | -13.1%
C[C@H](c1ccnc(Nc2nc3ccc(-c4cc(N(C)C)ncn4)cc3[nH]2)c1)N1CCN(C(=O)CC(F)(F)F)CC1 | 24.7%
O=C(N[C@H]1CCCCC/C=C\C2C[C@@]2(C(=O)O)NC(=O)[C@@H]2C[C@@H](Oc3ccncc3)CN2C1=O)OC1CCCC1 (stereo partly shown) | 9.48%
CN(C)c1ncnc(-c2ccc3nc(Nc4cc(CN5CCN(C(=O)CC(F)(F)F)CC5)ccn4)[nH]c3c2)c1Cl | 4.83%
CC1=C(C#N)C(c2ccc3[nH]nc(C)c3c2)C(C#N)=C(C)N1 | 5.33%
CCC(=NO)C(C)=Cc1ccc(F)c(C)c1 | 15.4%
C[C@@H]1CN(c2cc(-c3n[nH]c4ccc(OC5(C)CC5)cc34)ncn2)C[C@H](C)O1 | -4.79%
CN(C)CC#Cc1ccc(OCCCc2sc(N3CCc4cccc(C(=O)Nc5nc6ccccc6s5)c4C3)nc2C(=O)O)c(F)c1 | -3.11%
Cc1ccccc1Oc1cc(-n2c(=O)cc(C(F)(F)F)[nH]c2=O)c2ccccc2c1Cl | -8.67%
CCOc1ccc(S(=O)(=O)Nc2ccc(Cl)cc2C#Cc2cnc(C(=O)O)cc2OC)c2ncccc12 | 4.24%

Block 2 — observed: enzyme activity; mode: inhibitor; tested at: 0.5 µM; relative to: control
Target: Aurora kinase B (AURKB, Homo sapiens, UniProt Q96GD4)
Chain of UniProt Q96GD4 (whole entry, looked up): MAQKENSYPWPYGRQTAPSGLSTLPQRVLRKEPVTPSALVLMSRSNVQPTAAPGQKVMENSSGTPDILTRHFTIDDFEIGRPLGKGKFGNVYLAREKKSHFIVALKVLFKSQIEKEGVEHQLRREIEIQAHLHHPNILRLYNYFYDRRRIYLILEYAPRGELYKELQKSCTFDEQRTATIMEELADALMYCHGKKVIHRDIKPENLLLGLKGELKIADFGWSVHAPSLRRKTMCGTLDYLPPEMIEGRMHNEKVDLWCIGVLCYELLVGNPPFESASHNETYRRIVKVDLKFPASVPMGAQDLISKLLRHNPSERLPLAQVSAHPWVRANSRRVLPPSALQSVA
SMILES | remaining activity [%]
N#C/C(=C(/N)SC1C=CC=CC1)c1cccc(C(O)c2ccncc2)c1 (stereo not shown) | 105
O=C(O)/C=C/c1cc(Br)c(Br)c(Br)c1Br | 88.5
O=C(c1ccccc1)c1ccc(N2CCOCC2)cc1O | 95.5
NC(=O)c1ccc(-c2nc(-c3ccc4c(c3)OCCO4)c(-c3ccccn3)[nH]2)cc1 | 101
FC(F)(F)c1ccc(/C=C/c2nc(COc3ccc(CCCCn4ccnn4)cc3)co2)cc1 | 98

Block 3 — species: mouse; sample: microsomes or S9; tested at: 2 µM; time: 0.5 h
SMILES | remaining compound
COc1cc(CNCCN(C)C)c(Cl)cc1OCc1ccccc1 | 40%
Oc1cc2c(cc1C(c1ccc(Br)cc1)N1CCOCC1)OCO2 (stereo not shown) | > 99.9%
Cn1cc(-c2cnc3c(N)nn(Cc4cccc(C(F)(F)F)c4)c3c2)cn1 | 59.1%
COc1ccc(CCc2nc(C)c(O)c(-c3nnn[nH]3)c2C(=O)O)cc1 | 4.6%
O=c1[nH]c(O)ncc1S(=O)(=O)Nc1cccc2ccccc12 | 54.5%

Block 4 — cell line: mouse MPNST tumor cells; technique: high-content immunofluorescence imaging; item: nuclear SOX9; tested at: 10 µM; time: 12 h; setting: mean of 2 replicates; relative to: DMSO control; direction: higher = more nuclear SOX9
SMILES | nuclear SOX9 intensity
CC1CCN(C(c2ccc(F)cc2)c2ccc(C(C)C(=O)O)cc2-c2ccc(C(F)(F)F)cc2)CC1 (stereo not shown) | 110 % of DMSO
CC[C@H](C)C(=O)O[C@H]1C[C@H](O)C=C2C=C[C@H](C)[C@H](CC[C@@H](O)C[C@@H](O)CC(=O)O)[C@H]21 | 97 % of DMSO and 91.8 % of DMSO
COC(=O)C1=C(C)NC(C)=C(C(=O)OCCCN2CCC(c3ccccc3)(c3ccccc3)CC2)[C@H]1c1cccc([N+](=O)[O-])c1 | 126 % of DMSO

Single results of other studies
Structure (SMILES) | species | dose | setting | quantity | value
CC(C)n1cnc(-c2ccc(F)cc2)c1-c1ncc(C(=O)Nc2ccc(N3CCN(C)CC3)cc2)[nH]1 | IPF patients | 30 mg once daily | adverse event incidence | blood creatinine increased | 0%
